Published values of several laboratories.
Compare with care: the assays were run in different laboratories. “And” joins repeats or separate records; there may be more than shown. Numbers after ± are the reported error.

| SMILES | target or system | assay | system | setting | measurement | value |
| --- | --- | --- | --- | --- | --- | --- |
| O=C(N/N=C/c1ccc(C[n+]2ccccc2)cc1)C(=O)N/N=C/c1ccc(C[n+]2ccccc2)cc1 | hp2 hairpin duplex DNA | FRET melting |  | 1 µM | ΔTm | 0.4 ± 0.1 °C |
| C=CC(=O)N1CCCC(n2c(=O)c3ncccc3n(Cc3ccc(Oc4ccccc4)cc3)c2=O)C1 (centres unmarked) |  |  | male BALB/c mouse, plasma | intraperitoneal, 200 mg/kg, 6 h | plasma concentration | 223 ng/mL |
| CC[n+]1cccc2cc(/C=N/NC(=O)c3cccc(C(=O)N/N=C/c4ccc5c(ccc[n+]5CC)c4)n3)ccc21 | hp2 hairpin duplex DNA | FRET melting |  | 1 µM, together with: ds26 10 µM | ΔTm | 1.3 ± 0.2 °C |
| Cc1ncsc1-c1ccc(CNC(=O)[C@@H]2C[C@@H](O)CN2C(=O)[C@@H](NC(=O)COCC(C)(COCCOCCOCCNC(=O)C[C@@H]2N=C(c3ccc(Cl)cc3)c3c(sc(C)c3C)-n3c(C)nnc32)COCCOCCOCCNC(=O)C[C@@H]2N=C(c3ccc(Cl)cc3)c3c(sc(C)c3C)-n3c(C)nnc32)C(C)(C)C)cc1 |  |  | male C57BL/6 mice, plasma | intravenous, 5 mg/kg, 2 h, 20-fold diluted sample | plasma concentration | 3120 ng/mL and 3480 ng/mL |
| CC[C@H](C)[C@H](NC(=O)[C@H](Cc1ccc(O)cc1)NC(=O)[C@@H](NC(=O)[C@H](CCCNC(=N)N)NC(=O)[C@@H](N)CC(=O)O)C(C)C)C(=O)N[C@@H](Cc1c[nH]cn1)C(=O)N1CCC[C@H]1C(=O)O |  | LC-MS/MS | Sprague-Dawley rat, both sexes, plasma | subcutaneous, 10 mg/kg/day, day 27, 2 h, 120 min | plasma concentration | 1.89 ng/mL |
| CNc1cc(C)c(C(N)=O)cn1 |  |  | Han Wistar rats, male, plasma | oral, 30 mg/kg, 4.00 h | plasma concentration | 53.5 µM |
| O=C1CCC(N2Cc3cc(C(=O)O)c(F)cc3C2=O)C(=O)N1 (centres unmarked) |  |  | CD-1 mouse, male | oral, 10 mg/kg parent drug, 0.67 h | plasma concentration | 234 ± 109 ng/mL |
| COc1ccc(C(N)=O)cn1 |  |  | Han Wistar rats, male, plasma | oral, 30 mg/kg, 3.00 h | plasma concentration | 14.8 µM |
| CN1CCN(S(=O)(=O)c2ccc(-c3ccc4ncnc(Nc5ccc(OCc6ccccc6)cc5)c4c3)cc2)CC1 | Leishmania major | intracellular amastigote growth, luciferase | RAW264.7 macrophages |  | EC50 | 1900 nM |
| CNc1cc(N)c(C(N)=O)cn1 |  |  | Han Wistar rats, male, plasma | oral, 30 mg/kg, 1.50 h | plasma concentration | 19.4 µM |
| CC(C)n1ncc2c(C(=O)NC[C@@H](C)N)cc(C3CC3)nc21 |  |  | mouse BALB/c female, plasma | intraperitoneal, 30 mg/kg, 2 h | plasma concentration | 1240 ng/mL and 1010 ng/mL and 1310 ng/mL and 1290 ng/mL |
| C=C[C@]1(C)C[C@@H](OC(=O)CSc2ccc(NC(=O)c3ccco3)cc2)[C@]2(C)[C@H](C)CC[C@]3(CCC(=O)[C@H]32)[C@@H](C)[C@@H]1O |  |  | Mycoplasma gallisepticum-infected chickens, plasma | intramuscular, 5 mg/kg, 0.083 h | plasma concentration | 869 ng/mL and 583 ng/mL and 855 ng/mL and 695 ng/mL and 409 ng/mL |
| CC1(C)CC[C@@]2(CO)C(=C3C=C[C@@H]4[C@@]5(C)CC[C@H](O)[C@@](C)(CO)[C@@H]5CC[C@@]4(C)[C@]3(C)C[C@@H]2O)C1 |  | UHPLC-MS/MS | mouse, plasma | oral, 50 mg/kg of saikosaponin a, 4 h | plasma concentration | 17.5 ng/mL |
| CN1CCN(S(=O)(=O)c2ccc(-c3ccc4ncnc(Nc5ccc(OCc6ccccc6)c(Cl)c5)c4c3)cc2)CC1 | Leishmania major | intracellular amastigote growth, luciferase | RAW264.7 macrophages |  | EC50 | 2200 nM |

Repeated from above:
| SMILES | target or system | assay | system | setting | measurement | value |
| --- | --- | --- | --- | --- | --- | --- |
| CNc1cc(C)c(C(N)=O)cn1 |  |  | Han Wistar rats, male, plasma | oral, 30 mg/kg, 4.00 h | plasma concentration | 53.5 µM |
| C=C[C@]1(C)C[C@@H](OC(=O)CSc2ccc(NC(=O)c3ccco3)cc2)[C@]2(C)[C@H](C)CC[C@]3(CCC(=O)[C@H]32)[C@@H](C)[C@@H]1O |  |  | Mycoplasma gallisepticum-infected chickens, plasma | intramuscular, 5 mg/kg, 0.083 h | plasma concentration | 869 ng/mL and 583 ng/mL and 855 ng/mL and 695 ng/mL and 409 ng/mL |
